Experimental data pooled from the literature.
Compare with care: the assays were run in different laboratories. Values joined by “and” are separate records of one study, mostly repeats; a detail may differ. ± gives the spread as reported.
Gria2: Glutamate receptor 2 (Gria2, Rattus norvegicus, UniProt P19491)
CASP7: Caspase-7 (CASP7, Homo sapiens, UniProt P55210)

| Compound | target | assay | system | setting | how to read | measurement | result |
| --- | --- | --- | --- | --- | --- | --- | --- |
| Cn1c(=O)n(C2CCC(=O)NC2=O)c2ccc(C3CCN(CC(=O)Nc4cccc(CS(=O)(=O)N5CC[C@H](Nc6cccc(-c7sc(C(=O)O)c(OCC(=O)O)c7Cl)c6)CC5(C)C)c4)CC3)cc21 (stereo partly drawn) | Tyrosine-protein phosphatase non-receptor type 1 (Mus musculus, UniProt P35821) | degrader, Western blot | B16-F10 | 0.1 µM |  | remaining protein | 11.2% and 11.8% |
| CCCCCC(O)/C=C/C=O (stereo not drawn) | Condensin complex subunit 1 (Homo sapiens, UniProt Q15021) | competitive isoTOP-ABPP, item: NCAPD2 cysteine peptide | Ramos soluble proteome | 100 µM, with: iodoacetamide probe | reference: DMSO over compound-treated, higher = stronger cysteine blockade | isoTOP-ABPP competition ratio | 1.6 |
| CN(C)CCCSC(=S)N1CCN(C(=O)/C=C/c2coc3ccccc3c2=O)CC1 | Nucleoprotein (N, Tomato spotted wilt virus, UniProt P25999) | binding, microscale thermophoresis |  | 125 µM | dose series | normalised MST response | 0.382 |
| COc1ccccc1-c1ccncc1C(=O)Nc1nnc(OCc2ccc(Cl)cc2)s1 | DNA polymerase theta, helicase domain (POLQ, Homo sapiens, UniProt O75417) | ATPase activity, ADP-Glo |  | 0.03 µM, with: ATP 400 µM |  | remaining activity | 55% |
| NC(=O)c1cccc(NC(=O)c2oncc2-c2ccccc2)c1 | Genome polyprotein, NS2B-NS3 protease (dengue virus type 2, UniProt P29990) | enzyme activity, fluorogenic AMC substrate |  | 50 µM |  | inhibition | 25% |
| COC(=O)[C@]1(C(C)C)C=C(C(=O)Nc2cccc(C(=O)Nc3ccc(Nc4nccc(-c5cccnc5)n4)c(C)c3)c2)C(=O)CC1 | MAPK8 (Homo sapiens, UniProt P45983, C116S) | binding, SPR |  | 100, 300, 1000 nM, 1:1 binding model |  | kon | 311000 M⁻¹ s⁻¹ |
| O=C(O)Cc1cc2c(cc1C(=O)c1cccc(I)c1)OCO2 | Gria2 | whole-cell patch clamp | HEK-293T | concentration not given, with: glutamate |  | deactivation time constant | 4.3 ± 0.3 ms |
| CC1CCN(c2ccc(-c3n[nH]c(=O)c4ncccc34)cc2)CC1 | human kinase panel | binding, KINOMEscan |  | 10000 nM, %Ctrl below 10 |  | number of kinases hit | 0 |
| O=C(O)Cc1cc2c(cc1C(=O)c1ccccc1)OCO2 | Gria2 | glutamate-evoked current, whole-cell patch clamp | HEK-293T | concentration not given, weighted tau, 1 ms pulse, with: glutamate |  | deactivation time constant | 2.6 ± 0.1 ms |
| NCc1cc2c(cc1F)C(=O)N(C1CCC(=O)NC1=O)C2 (stereo not drawn) | NEK7/CRBN (Homo sapiens, UniProt Q8TDX7+Q96SW2) | degrader, Western blot | Hep3B | 24 h |  | Dmax | 95% |
| CC(C)Oc1cc(Cl)ccc1CNc1cc(-c2ccccc2)nc2ncnn12 | GPR3 (Homo sapiens, UniProt P46089, M156A) | cAMP level, cAMP GloSensor |  | 30 µM | higher = more cAMP | cAMP luminescence | 6280 a.u. and 4740 a.u. and 5740 a.u. and 4600 a.u. |
| CCCC[C@H](NC(=O)[C@H](CC(=O)O)NC(C)=O)C(=O)N1[C@H](C(=O)N[C@@H](CC(=O)O)C(=O)COC(=O)c2c(C)cccc2C)C[C@@H]2CCCC[C@@H]21 | CASP7 | enzyme activity, inhibitor |  |  |  | kinact/KI | 162000 M⁻¹ s⁻¹ |
| CCOC(=O)[C@H](Cc1ccc(OC)cc1)NC(=O)c1ccc(C2CC2)c(Cc2ccc(F)cc2)n1 | CNR2 (Homo sapiens, UniProt P34972) | radioligand binding |  |  | reference: CB1 over CB2 (human) | Ki ratio | 18 |
| CC(=O)N[C@@H](CC(=O)O)C(=O)N[C@@H](C)C(=O)N[C@@H](Cc1ccc(N)cc1)C(=O)N[C@@H](CC(=O)O)C(=O)COC(=O)c1c(C)cccc1C | CASP7 | enzyme activity, inhibitor |  |  |  | kinact/KI | 216000 M⁻¹ s⁻¹ |
| N#CN1CC[C@H](C(=O)Nc2nc3c(s2)CN(C(=O)Cn2cc(COCCOCCOCCOCCNC(=O)CCCC[C@@H]4SC[C@@H]5NC(=O)N[C@@H]54)nn2)CC3)C1 | USP19 (Homo sapiens, UniProt O94966) | probe binding, affinity probe, neutravidin pull-down LC-MS/MS | HEK293T, cell lysate | 5 µM, 1 h, mean of three replicates, unit not given | higher = more pulled down | iBAQ abundance | 1.2e+06 |

Excerpt of the above:
| Compound | target | assay | system | setting | how to read | measurement | result |
| --- | --- | --- | --- | --- | --- | --- | --- |
| COc1ccccc1-c1ccncc1C(=O)Nc1nnc(OCc2ccc(Cl)cc2)s1 | DNA polymerase theta, helicase domain (POLQ, Homo sapiens, UniProt O75417) | ATPase activity, ADP-Glo |  | 0.03 µM, with: ATP 400 µM |  | remaining activity | 55% |
